# Assay results gathered from unrelated publications.
# Numbered parts are unrelated; each lists some results of a single study. Changes are numbered by the printed parent chain.

# Series 1 — technique: DHFR PCA, dose-response; sample: yeast; together with: (+)-ABA, dose series; direction: lower = more sensitive
# Target: ABI1, truncated, D143A, DHFR fusion (Arabidopsis thaliana, UniProt P49597)
# Notes: Hill fit, not affinity, not high confidence
# Starting sequence: PYL1, truncated, DHFR fusion (Arabidopsis thaliana, UniProt Q8VZS8); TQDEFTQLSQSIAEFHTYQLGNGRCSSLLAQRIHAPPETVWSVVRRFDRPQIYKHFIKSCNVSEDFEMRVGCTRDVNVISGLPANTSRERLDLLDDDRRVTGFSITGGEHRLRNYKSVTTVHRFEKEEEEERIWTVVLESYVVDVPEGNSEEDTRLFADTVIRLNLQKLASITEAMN
Variant,ABA EC50 [µM]
F157K,4.46
C60Q,1980
L112W,0.449
N114P,2420
Y115H,507
C25N,508
R45Y,1510
S27L,384
Y141I,6.65

# Series 2 — technique: RNA Bind-n-Seq; form: RNA; sample: in vitro; concentration: not given; relative to: input RNA pool; direction: higher = stronger binding
# Target: RING finger protein unkempt homolog, zinc fingers 1-6, GST-SBP tag (UNK, Homo sapiens, UniProt Q9C0B0, residues 30-357)
# Sequence of UniProt Q9C0B0 (30-357, looked up): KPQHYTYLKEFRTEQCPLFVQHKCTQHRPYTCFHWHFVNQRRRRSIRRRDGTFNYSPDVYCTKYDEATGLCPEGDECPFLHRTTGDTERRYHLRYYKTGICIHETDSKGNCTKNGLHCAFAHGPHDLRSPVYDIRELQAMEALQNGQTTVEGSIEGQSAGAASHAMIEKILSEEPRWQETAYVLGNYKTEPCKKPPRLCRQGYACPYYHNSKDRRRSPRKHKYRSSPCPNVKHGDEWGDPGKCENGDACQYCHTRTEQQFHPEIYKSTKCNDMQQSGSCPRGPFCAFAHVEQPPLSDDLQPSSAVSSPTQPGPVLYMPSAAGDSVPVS
# Notes: RNA with constant flanks, human and mouse sites, ends assumed
# Constant ends, left off below: GGGAGUUCUACAGUCCGACGAUC … CAACAGAGGAUUGAGCAUCA
Strand,bound/input enrichment
AACAUUGUAUCAUAGUUCAUUCAUUUGCAGUGGAUCUUUGUUCCUUUUUACUGUGGUAAUUUUAGAAAUGAGUGUCAAGUUUGAAAUUAGAUCUGCUAAGUUGGGGUUUUGCUGCUUGAA,1.03 ratio
UUUUCUUUCUUUCUUAGCUGUUAGCUGAGAGGAAGUCUCUGAACAGGCGGCAGCGGCUCUUAUAGUGCAACCAUGGCAGACUAUUCAACAGUGCCUCCCCCCUCUUCUGGCUCAGCUGGU,0.428 ratio
UGCUGCAUCCUGCACAGCAGGGUUCAGUUUCAUGUAUCUUUGUCUUUUCCUCUAGAACCUGCCUUUUUCAAAUAUCCCUGCCUUUUCCCACCUGGAAACAUAUACUGUAUGCGAAAGAGU,0.351 ratio
GACUUGGUACAUUUUGAUUUUAUGGAUCCACCAGCUCCUGAAACUCUGAUGAGAGCCCUGGAACUUUUGAAUUACCUGGCUGCUUUAAAUGAUGAUGGAGAUCUGACUGAAUUGGGAUCC,0.19 ratio
GUCCUUAUUGAUCCUUUUUCUUGGCGUUACCAUUUUUGAAGCAAAGUUAACCUAGCUUUCUAGCUUGAGCUUUCUUUUUGGCCAUCUUUUAAAACUUUUUUUUUUUUUUUUGAUCUAUAA,3.65 ratio
ACAGUUACUUAAUUUCUAGAGUUCAGGCCUCUGGGAUCAACCCCAGACUGGGCCAGAAUGUUAGUGAAGGUUUUAUUGUGCCCGGUUGGAGGAUAACGUUCUUUGGGUACUUUUUGUGGG,0.281 ratio
CACAAGAAGCGGAUCCAGGAAGUUGGUGAACCAUCUAAAGAAGAGAAGGCUGUGGCCAAGUAUCUUCGAUUCAACUGUCCAACAAAGUCCACCAAUAUGAUGGGUCACCGGGUUGAUUAU,0.114 ratio
UGCACUGAUAUCAUCCACCUGGACACCCAGCGGCUCCAUUACUACAGGGGCAAUUACAUGACCUUCAAGAAGAUGUACCAGCAGAAGCAGAAAGAGCUGCUAAAGCAGUACGAGAAGCAG,0.113 ratio
CAAACACCAGCAACAUCAGAGCUGAACUUCUUAAGAAAAGCACAGACAUUGGAAACAUAUGGAGUGGAUCCUCACCCAUGUAAGGACGUGUCAGGAAAUGCUGCAUUUCUGGCCUUCACU,0.188 ratio
GAGCCCUAUGGCUUCCGCUCCUCAAUGCUAUUUGAUACAAUGCAACAUCAUCUGGCCUUGAAUAGAGAUUUGACUACAUCUAGUGUGGAGAAAGACAGCGGAGGGAAGACACCCGGAGAC,0.343 ratio
AGAUGUCAGCUUAGUGUAAUAGGAAUUGGCCAUCUGGAAGCUGAUCAUCUUCUGAAGUCAGCAGAUGAUCAUUUAAGACUGUUAAAUGCUAUUUGGCCUCAUUAGUUAUGAGUUGCAUGU,0.829 ratio

# Series 3 — technique: protein-binding microarray; form: double-stranded DNA, one strand shown; sample: in vitro; concentration: 250 nM; notes: 60-bp whole probe; together with: salmon DNA 0.4 mg/ml; relative to: random background probes; direction: higher = stronger binding; constant ends, left off below: GCCTAGCAC … GTCTTGATTCGCTTGACGCTGCTG
# Target: Interferon regulatory factor 7, full length, phosphomimetic (IRF7, Homo sapiens, UniProt Q92985, residues 1-503, S101K/S471D/S472D/S475D/S476D/S477D/S483D/S484D/S487D)
# Residues (chain): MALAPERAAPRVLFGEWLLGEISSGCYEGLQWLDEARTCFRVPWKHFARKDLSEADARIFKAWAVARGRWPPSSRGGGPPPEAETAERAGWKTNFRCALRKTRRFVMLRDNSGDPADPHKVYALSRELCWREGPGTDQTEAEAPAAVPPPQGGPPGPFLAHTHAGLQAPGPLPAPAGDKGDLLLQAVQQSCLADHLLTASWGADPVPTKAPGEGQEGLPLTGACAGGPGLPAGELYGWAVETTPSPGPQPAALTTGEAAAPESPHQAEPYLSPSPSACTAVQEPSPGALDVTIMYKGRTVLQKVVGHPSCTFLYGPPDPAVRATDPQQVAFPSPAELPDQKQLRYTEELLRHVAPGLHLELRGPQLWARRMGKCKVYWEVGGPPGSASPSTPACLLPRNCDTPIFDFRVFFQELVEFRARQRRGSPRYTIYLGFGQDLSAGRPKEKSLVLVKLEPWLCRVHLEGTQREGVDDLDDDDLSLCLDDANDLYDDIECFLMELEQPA
Strand,log fluorescence [z-score]
GCCGGTTTCCTACTGCTGACGTGCTAG,2.04
ATTGTCTTCCCCATCTTGTTGTGCTAG,1.29
TCATGTATGGGCATTTTTACTGTGCTA,-0.768
TTAGATATAGGGACTGGATTAGTGCTA,-0.0284
TTAGGTTTCGACTATCGATTAGTGCTA,6.05
TTAGGTTTCCTTCTGCTTTAGTGCTAG,2.58
TTAGGTCTCGGCCTGGGTTAGTGCTAG,-0.0786
TTAGTTATCAGTCTCGATTAGTGCTAG,1.86
GACGATTTCAGTTCCGATACGTGCTAG,0.783
CTAGATCTCAGTCTCGATTAGTGCTAG,1.93
TCACATCTTCCTCTGCCACTGTGCTAG,0.853
TTAGATATCAATATCGATTAGTGCTAG,0.304
GACGGTCTCCTTCTCGTGACGTGCTAG,0.0535
TTAGGTATCGACACTGGGTGAGTGCTA,0.107
GACGAACTGAATATCGAGACGTGCTAG,0.136
TGAGGTTTCGGTCTCGGTTAGTGCTAG,8.23
GACGGTTTCGACTTTCGGAACGTGCTA,11.8
TCAAGACTCATAATGGCACTGTGCTAG,0.12
GGCGATTTCAGACTGGAGACGTGCTAG,-0.666
TTAGGTTTCCTTTTCCTTCAGTGCTAG,6.66
GTAGTAATCTTAAGGCTGTCGTGCTAG,-0.489
TTAGATTTCGGGTATGGATTAGTGCTA,0.761
GACGGTATCCAACTGCTGACGTGCTAG,-0.412

# Series 4 — target: CCNB1, cyclin fold, Cln2 fusion (human); technique: yeast growth competition, sequencing; sample: yeast; notes: weak parent motif; relative to: not given; direction: higher = stronger binding
# Starting sequence: REPIN1 docking peptide (human); QSFRGWVALVLHL
Variant,normalised enrichment score
Q1A,0.322
V7A,0.835
R4A,0.484
G5A,0.893
L13A,0.761
F3A,0.211

# Series 5 — technique: aptamer microarray, sandwich; form: DNA with 2'F-ANA; sample: in vitro; concentration: 200 nM; together with: Cy3 exosite-II aptamer, 400 nM; direction: higher = stronger binding; strand: GGTTGGTGTGGTTGG
# Target: Prothrombin, mature alpha-thrombin (F2, Homo sapiens, UniProt P00734)
# Notes: whole 15-mer aptamer, many near background
Modification,mean fluorescence intensity [a.u.]
2'F-ANA at 1 3 4 5 6 9 10 13 15,49.8
2'F-ANA at 1 2 4 5 7 11 13,47.7
2'F-ANA at 2 3 4 5 6 10 13 14 15,46.9
2'F-ANA at 4 5 8 9 10 11 12 13 14 15,47
2'F-ANA at 1 4 5 6 9 10 11 12 13 15,55.6
2'F-ANA at 2 6 7 10 11 12 13 15,121
2'F-ANA at 2 3 4 9 11,583
2'F-ANA at 1 2 3 4 5 6 7 8 10 15,49.4
2'F-ANA at 1 2 5 7 11 13 14 15,47.8
2'F-ANA at 2 3 5 6 7 10 11 13 14,48.4
2'F-ANA at 4 5 6 7 8 9 12 13 14,50.7
2'F-ANA at 1 2 3 4 8 11 12,314
2'F-ANA at 2 3 5 6 8 12 13,188
2'F-ANA at 1 2 4 6 10 12 13,108
2'F-ANA at 4 8 11 12 13 15,366
2'F-ANA at 5 7 9 12 13 14,45.7
2'F-ANA at 4 5 7 13 14,50.2
2'F-ANA at 1 3 7 10 12,121
2'F-ANA at 5 6 8 13 14 15,47.9
2'F-ANA at 2 3 10 11,412
2'F-ANA at 1 3 5 9 10 11 12 13 14,80.2
2'F-ANA at 2 3 7 8 9 10 13 14 15,261
2'F-ANA at 3 4 5 6 8 12 15,223
2'F-ANA at 1 2 4 5 6 7 8 10 11 13,52.9
2'F-ANA at 3 6 7 8 9 12,1260

# Series 6 — target: CEBPE, bZIP domain (human); technique: DHFR protein complementation; sample: yeast; relative to: wild-type JUN-FOS pair; direction: higher = stronger binding
# Notes: single substitutions, most at no-binding floor
# Starting sequence: JUN, bZIP domain (human); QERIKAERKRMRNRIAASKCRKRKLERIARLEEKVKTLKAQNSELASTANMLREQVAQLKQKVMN; partner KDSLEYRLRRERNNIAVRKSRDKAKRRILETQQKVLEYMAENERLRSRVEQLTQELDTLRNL
Variant,binding fitness [natural log]
V35C,-1.06
E54H,-1.29
V35K,-1.36
K34E,-1.28
M51P,-1.49
L38P,-1.49
A57M,-1.16
Q41A,-1.13
L45Q,-1.46
L52S,-1.49
A29V,-1.31
Q58S,-1.02
L45A,-1.49
T37N,-1.03
Q41G,-1.43
E44K,-1.3
